Measured values collected from several papers.
Numbers after ± are the reported error. No end group written: not given here.
B1: erenumab; V domains shown; sequence looked up; VH QVQLVESGGGVVQPGRSLRLSCAASGFTFSSFGMHWVRQAPGKGLEWVAVISFDGSIKYSVDSVKGRFTISRDNSKNTLFLQMNSLRAEDTAVYYCARDRLNYYDSSGYYHYKYYGMAVWGQGTTVTVSS; VL QSVLTQPPSVSAAPGQKVTISCSGSSSNIGNNYVSWYQQLPGTAPKLLIYDNNKRPSGIPDRFSGSKSGTSTTLGITGLQTGDEADYYCGTWDSRLSAVVFGGGTKLTVL
B2: Sema6a 19-571 K393D (Mus musculus, UniProt O35464); sequence looked up; chain GFPEDSEPISISHGNYTKQYPVFVGHKPGRNTTQRHRLDIQMIMIMNRTLYVAARDHIYTVDIDTSHTEEIYCSKKLTWKSRQADVDTCRMKGKHKDECHNFIKVLLKKNDDTLFVCGTNAFNPSCRNYRVDTLETFGDEFSGMARCPYDAKHANIALFADGKLYSATVTDFLAIDAVIYRSLGDSPTLRTVKHDSKWLKEPYFVQAVDYGDYIYFFFREIAVEYNTMGKVVFPRVAQVCKNDMGGSQRVLEKQWTSFLKARLNCSVPGDSHFYFNILQAVTDVIRINGRDVVLATFSTPYNSIPGSAVCAYDMLDIANVFTGRFKEQKSPDSTWTPVPDERVPKPRPGCCAGSSSLEKYATSNEFPDDTLNFIDTHPLMDEAVPSIINRPWFLRTMVRYRLTKIAVDNAAGPYQNHTVVFLGSEKGIILKFLARIGSSGFLNGSLFLEEMNVYNPEKCSYDGVEDKRIMGMQLDRASGSLYVAFSTCVIKVPLGRCERHGKCKKTCIASRDPYCGWVRESGSCAHLSPLSRLTFEQDIERGNTDGLGDCHNS
B3: TIMP3 24-144 (Homo sapiens, UniProt P35625); sequence looked up; chain CTCSPSHPQDAFCNSDIVIRAKVVGKKLVKEGPFGTLVYTIKQMKMYRGFTKMPHVQYIHTEASESLCGLKLEVNKYQYLLTGRVYDGKMYTGLCNFVERWDQLTLSQRKGLNYRYHLGCN
B4: ATF1 (Homo sapiens, UniProt P18846); sequence looked up; chain MEDSHKSTTSETAPQPGSAVQGAHISHIAQQVSSLSESEESQDSSDSIGSSQKAHGILARRPSYRKILKDLSSEDTRGRKGDGENSGVSAAVTSMSVPTPIYQTSSGQYIAIAPNGALQLASPGTDGVQGLQTLTMTNSGSTQQGTTILQYAQTSDGQQILVPSNQVVVQTASGDMQTYQIRTTPSATSLPQTVVMTSPVTLTSQTTKTDDPQLKREIRLMKNREAARECRRKKKEYVKCLENRVAVLENQNKTLIEELKTLKDLYSNKSV
B5: rsd G14E/Y34F (Escherichia coli, UniProt P0AFX4); chain MLNQLDNLTERVRESNKLVDRWLHVRKHLLVAYFNLVGIKPGKESYMRLNEKALDDFCQSLVDYLSAGHFSIYERILHKLEGNGQLARAAKIWPQLEANTQQIMDYYDSSLETAIDHDNYLEFQQVLSDIGEALEARFVLEDKLILLVLDAARVKHPA
B6: UGT1A9 (Homo sapiens, UniProt O60656); chain GKLLVVPMDGSHWFTMRSVVEKLILRGHEVVVVMPEVSWQLGRSLNCTVKTYSTSYTLEDLDREFKAFAHAQWKAQVRSIYSLLMGSYNDIFDLFFSNCRSLFKDKKLVEYLKESSFDAVFLDPFDNCGLIVAKYFSLPSVVFARGILCHYLEEGAQCPAPLSYVPRILLGFSDAMTFKERVRNHIMHLEEHLLCHRFFKNALEIASEILQTPVTEYDLYSHTSIWLLRTDFVLDYPKPVMPNMIFIGGINCHQGKPLPMEFEAYINASGEHGIVVFSLGSMVSEIPEKKAMAIADALGKIPQTVLWRYTGTRPSNLANNTILVKWLPQNDLLGHPMTRAFITHAGSHGVYESICNGVPMVMMPLFGDQMDNAKRMETKGAGVTLNVLEMTSEDLENALKAVINDKSYKENIMRLSSLHKDRPVEPLDLAVFWVEFVMRHKGAPHLRPAAHDLTWYQYHSLDVIGFLLAVVLTVAFITFKCCAYGYRKCLGKKGRVKKAHKSKTH
B7: GPIHBP1 21-151 (Homo sapiens, UniProt Q8IV16); sequence looked up; chain QTQQEEEEEDEDHGPDDYDEEDEDEVEEEETNRLPGGRSRVLLRCYTCKSLPRDERCNLTQNCSHGQTCTTLIAHGNTESGLLTTHSTWCTDSCQPITKTVEGTQVTMTCCQSSLCNVPPWQSSRVQDPTG
B8: Efnb1 25-236 (Mus musculus, UniProt P52795); sequence looked up; chain ATPLAKNLEPVSWSSLNPKFLSGKGLVIYPKIGDKLDIICPRAEAGRPYEYYKLYLVRPEQAAACSTVLDPNVLVTCNKPHQEIRFTIKFQEFSPNYMGLEFKKYHDYYITSTSNGSLEGLENREGGVCRTRTMKIVMKVGQDPNAVTPEQLTTSRPSKESDNTVKTATQAPGRGSQGDSDGKHETVNQEEKSGPGAGGGGSGDSDSFFNSK
UniProt P49682, sequence (whole entry, looked up): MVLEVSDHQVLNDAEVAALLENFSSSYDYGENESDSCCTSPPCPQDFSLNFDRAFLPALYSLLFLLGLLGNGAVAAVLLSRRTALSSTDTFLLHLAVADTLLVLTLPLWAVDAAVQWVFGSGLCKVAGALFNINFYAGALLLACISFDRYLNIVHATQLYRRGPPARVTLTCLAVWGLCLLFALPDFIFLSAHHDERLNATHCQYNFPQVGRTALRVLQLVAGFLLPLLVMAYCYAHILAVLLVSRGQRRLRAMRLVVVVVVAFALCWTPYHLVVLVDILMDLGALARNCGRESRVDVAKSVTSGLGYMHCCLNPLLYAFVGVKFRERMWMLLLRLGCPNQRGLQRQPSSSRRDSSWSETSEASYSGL
UniProt Q9C9W9, sequence (whole entry, looked up): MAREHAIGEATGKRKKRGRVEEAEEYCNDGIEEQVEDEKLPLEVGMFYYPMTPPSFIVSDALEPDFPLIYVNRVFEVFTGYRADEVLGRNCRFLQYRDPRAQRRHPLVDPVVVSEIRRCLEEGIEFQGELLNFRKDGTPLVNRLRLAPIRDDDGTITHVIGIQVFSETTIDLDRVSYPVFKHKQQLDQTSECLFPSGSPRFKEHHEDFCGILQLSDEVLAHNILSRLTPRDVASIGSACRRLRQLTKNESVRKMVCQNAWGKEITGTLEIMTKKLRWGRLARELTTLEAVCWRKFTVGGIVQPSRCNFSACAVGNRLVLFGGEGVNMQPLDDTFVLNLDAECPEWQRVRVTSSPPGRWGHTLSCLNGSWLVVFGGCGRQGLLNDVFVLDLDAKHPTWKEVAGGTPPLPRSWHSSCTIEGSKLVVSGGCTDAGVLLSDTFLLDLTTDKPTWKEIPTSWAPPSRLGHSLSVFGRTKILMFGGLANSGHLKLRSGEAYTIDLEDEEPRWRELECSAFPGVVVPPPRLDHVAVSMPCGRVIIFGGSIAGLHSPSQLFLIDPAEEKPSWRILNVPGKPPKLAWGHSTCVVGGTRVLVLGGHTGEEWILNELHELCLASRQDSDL
UniProt P07949, sequence (whole entry, looked up): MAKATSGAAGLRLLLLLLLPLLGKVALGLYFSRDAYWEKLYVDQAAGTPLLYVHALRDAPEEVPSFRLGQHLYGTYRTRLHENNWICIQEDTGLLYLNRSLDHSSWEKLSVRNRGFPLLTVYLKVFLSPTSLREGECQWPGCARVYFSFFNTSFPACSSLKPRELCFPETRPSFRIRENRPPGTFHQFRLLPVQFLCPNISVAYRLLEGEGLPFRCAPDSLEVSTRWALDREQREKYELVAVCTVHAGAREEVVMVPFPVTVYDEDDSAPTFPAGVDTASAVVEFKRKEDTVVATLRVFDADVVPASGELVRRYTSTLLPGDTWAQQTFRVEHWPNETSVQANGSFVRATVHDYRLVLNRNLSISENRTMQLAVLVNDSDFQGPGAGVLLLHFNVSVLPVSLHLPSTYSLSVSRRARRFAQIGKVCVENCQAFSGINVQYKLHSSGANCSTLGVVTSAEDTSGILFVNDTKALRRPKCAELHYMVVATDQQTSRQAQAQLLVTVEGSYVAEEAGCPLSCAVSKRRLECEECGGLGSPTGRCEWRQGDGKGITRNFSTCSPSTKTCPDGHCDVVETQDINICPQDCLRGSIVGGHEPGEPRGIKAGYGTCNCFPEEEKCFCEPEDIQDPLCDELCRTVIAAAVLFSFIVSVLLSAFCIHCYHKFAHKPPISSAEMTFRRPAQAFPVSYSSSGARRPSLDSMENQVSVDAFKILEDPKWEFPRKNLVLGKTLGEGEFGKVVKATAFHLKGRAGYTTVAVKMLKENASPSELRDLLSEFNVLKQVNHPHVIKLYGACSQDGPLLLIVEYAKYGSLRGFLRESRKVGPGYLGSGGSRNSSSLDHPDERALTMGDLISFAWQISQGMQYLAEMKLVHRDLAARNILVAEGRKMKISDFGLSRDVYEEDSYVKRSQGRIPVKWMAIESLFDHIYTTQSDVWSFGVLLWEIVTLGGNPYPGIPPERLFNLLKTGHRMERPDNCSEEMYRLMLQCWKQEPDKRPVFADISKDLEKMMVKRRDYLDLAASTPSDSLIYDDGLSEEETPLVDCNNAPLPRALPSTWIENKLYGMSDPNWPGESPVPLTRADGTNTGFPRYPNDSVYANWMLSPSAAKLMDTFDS
UniProt Q0VDU3, sequence (whole entry, looked up): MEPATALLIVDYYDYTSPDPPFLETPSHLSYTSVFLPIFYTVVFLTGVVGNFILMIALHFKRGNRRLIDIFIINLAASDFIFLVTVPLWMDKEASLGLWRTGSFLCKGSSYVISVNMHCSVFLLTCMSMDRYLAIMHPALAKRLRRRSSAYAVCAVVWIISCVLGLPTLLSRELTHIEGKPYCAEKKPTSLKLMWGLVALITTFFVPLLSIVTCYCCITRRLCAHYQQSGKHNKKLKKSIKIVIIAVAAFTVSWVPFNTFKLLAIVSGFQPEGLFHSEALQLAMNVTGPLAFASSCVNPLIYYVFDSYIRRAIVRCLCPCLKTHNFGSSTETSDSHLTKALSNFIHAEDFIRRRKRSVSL
UniProt P01031, sequence (whole entry, looked up): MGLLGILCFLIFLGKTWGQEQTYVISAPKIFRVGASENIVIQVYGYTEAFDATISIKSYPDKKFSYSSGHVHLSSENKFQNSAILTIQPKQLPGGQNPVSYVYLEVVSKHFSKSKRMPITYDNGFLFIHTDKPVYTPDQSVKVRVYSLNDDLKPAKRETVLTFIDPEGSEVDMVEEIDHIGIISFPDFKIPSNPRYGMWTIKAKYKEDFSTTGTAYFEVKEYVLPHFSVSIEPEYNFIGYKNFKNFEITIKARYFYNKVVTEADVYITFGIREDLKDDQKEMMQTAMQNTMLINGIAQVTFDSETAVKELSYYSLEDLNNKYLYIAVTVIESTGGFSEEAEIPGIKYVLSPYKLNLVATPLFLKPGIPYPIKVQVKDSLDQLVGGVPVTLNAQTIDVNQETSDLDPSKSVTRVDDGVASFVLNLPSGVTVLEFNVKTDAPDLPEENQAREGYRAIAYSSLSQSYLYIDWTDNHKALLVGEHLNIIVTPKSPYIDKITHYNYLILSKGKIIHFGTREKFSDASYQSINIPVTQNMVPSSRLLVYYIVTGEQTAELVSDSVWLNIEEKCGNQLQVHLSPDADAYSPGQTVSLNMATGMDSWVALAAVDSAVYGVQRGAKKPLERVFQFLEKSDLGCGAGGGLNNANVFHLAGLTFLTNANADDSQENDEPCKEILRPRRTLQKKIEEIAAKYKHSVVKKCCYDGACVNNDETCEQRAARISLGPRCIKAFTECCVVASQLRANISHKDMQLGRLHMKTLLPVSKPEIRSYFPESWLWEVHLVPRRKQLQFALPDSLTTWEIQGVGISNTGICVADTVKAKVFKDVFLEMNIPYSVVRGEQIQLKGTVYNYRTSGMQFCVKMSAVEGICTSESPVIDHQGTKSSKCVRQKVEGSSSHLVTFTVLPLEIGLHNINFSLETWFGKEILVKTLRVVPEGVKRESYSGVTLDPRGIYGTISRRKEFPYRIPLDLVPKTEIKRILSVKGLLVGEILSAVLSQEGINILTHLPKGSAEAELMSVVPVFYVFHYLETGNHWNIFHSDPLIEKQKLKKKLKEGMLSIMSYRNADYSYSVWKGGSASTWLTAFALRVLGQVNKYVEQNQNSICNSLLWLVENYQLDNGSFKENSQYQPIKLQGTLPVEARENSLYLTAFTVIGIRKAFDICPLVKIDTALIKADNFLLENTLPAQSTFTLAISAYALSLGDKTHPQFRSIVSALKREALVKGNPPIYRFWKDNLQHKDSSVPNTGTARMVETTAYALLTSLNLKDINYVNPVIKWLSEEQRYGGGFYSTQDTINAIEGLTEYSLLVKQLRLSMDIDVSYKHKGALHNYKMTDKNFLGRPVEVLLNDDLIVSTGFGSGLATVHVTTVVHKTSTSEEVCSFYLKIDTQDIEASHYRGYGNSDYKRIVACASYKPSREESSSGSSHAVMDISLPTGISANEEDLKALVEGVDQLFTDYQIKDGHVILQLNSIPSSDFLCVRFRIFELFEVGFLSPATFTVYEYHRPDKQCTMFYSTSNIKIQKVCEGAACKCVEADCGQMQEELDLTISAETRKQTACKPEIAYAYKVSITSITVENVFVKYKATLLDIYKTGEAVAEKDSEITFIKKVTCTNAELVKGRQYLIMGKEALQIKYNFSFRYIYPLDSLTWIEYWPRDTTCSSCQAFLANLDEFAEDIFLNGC
UniProt P05937, sequence (whole entry, looked up): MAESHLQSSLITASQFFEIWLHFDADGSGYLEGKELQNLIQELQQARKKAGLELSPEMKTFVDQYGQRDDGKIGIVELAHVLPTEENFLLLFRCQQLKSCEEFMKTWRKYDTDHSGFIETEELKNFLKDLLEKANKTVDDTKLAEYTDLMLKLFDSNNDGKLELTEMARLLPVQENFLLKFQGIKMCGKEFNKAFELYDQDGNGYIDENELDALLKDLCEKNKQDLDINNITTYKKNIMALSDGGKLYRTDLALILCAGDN
UniProt P10145, sequence (whole entry, looked up): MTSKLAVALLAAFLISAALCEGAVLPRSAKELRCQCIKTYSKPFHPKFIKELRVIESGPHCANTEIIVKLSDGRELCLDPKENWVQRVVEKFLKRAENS
UniProt P30542, sequence (whole entry, looked up): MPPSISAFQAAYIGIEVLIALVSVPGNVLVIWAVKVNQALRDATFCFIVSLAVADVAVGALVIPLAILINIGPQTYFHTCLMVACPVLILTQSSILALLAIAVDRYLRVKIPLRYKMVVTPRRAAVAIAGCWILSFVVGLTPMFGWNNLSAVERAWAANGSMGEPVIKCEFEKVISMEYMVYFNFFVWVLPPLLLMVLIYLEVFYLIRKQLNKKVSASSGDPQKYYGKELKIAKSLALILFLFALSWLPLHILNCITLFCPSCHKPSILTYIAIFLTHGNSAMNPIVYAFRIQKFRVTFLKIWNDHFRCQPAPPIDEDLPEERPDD

Molecule	target or system	test	system	setting	scale	endpoint	value
MSH5 fragment del of five Pro residues (Homo sapiens)	ABL1 61-121 (Homo sapiens, UniProt P00519)	β-galactosidase activity, two-hybrid	L40 yeast		baseline: wild-type hMSH5, higher = greater loss of binding	reduction of interaction	60%
B1 (erenumab)	CALCR/RAMP1 on cells (Homo sapiens)	cAMP production, antagonist, Schild analysis	antibody, Cos7	with: amylin		pKB	6.64
C5a (Homo sapiens, UniProt P01031)	C5AR1 (Homo sapiens, UniProt P21730)	flow cytometry	granulocytes, whole blood	210 nM, with: C5a	baseline: non-activated control, higher = more expression	CD11b expression	1.5 fold
PTH fragment, C-terminal amide (Homo sapiens)	PTH1R (Homo sapiens, UniProt Q03431)	cAMP	HEK293	EC50		cAMP production	0.58 nM
IGF1 (Homo sapiens, UniProt P05019)	IGF1R (Gallus gallus)	neurite growth	embryonic spinal motoneurons	0.1-10 nM	baseline: no hormone, higher = longer	neurite length per neuron	159 um
CALB1 (Homo sapiens, UniProt P05937)	IMPA1 (Homo sapiens, UniProt P29218)	enzyme activity, colorimetric phosphate assay		35 min, 37 °C	baseline: wild-type IMPase alone, higher = more activity	relative activity	600%
RRRRRRC / CGSFPPWVQKTEV (peptide; cyclic, disulfide-linked poly-Arg)	DLG4 309-422 (Homo sapiens, UniProt P78352)	SPR	peptide			koff	0.0312 s⁻¹
EPEPRLWVVPGALPQV (C10ORF99 66-81 (Homo sapiens))	GPR15 (Mus musculus, UniProt Q0VDU3)	intracellular Ca2+, agonist	peptide, CHO		lower = more potent	concentration of peak response	10 nM
VPLPAGGGTVLTKMYPRGNHWAVGHLM-NH2 (GRP mature (UniProt P07492); C-terminal amide)	GRPR R287A (Homo sapiens, UniProt P30550)	calcium mobilization	peptide, CHO		baseline: wild-type receptor, higher = greater loss	activity decrease	51 fold
dulaglutide Fc fusion	GLP1R (Homo sapiens, UniProt P43220)	cAMP-driven luciferase, agonist				EC50	6.66 pM
ADM2 fragment (Homo sapiens)	CALCRL/RAMP1 whole, on cells (Homo sapiens)	cAMP, antagonist, CAMYEL BRET	COS-7			cAMP decay half-life	3.08 min
B2 (Sema6a 19-571 K393D)	PlxnA2 35-703 (Mus musculus, UniProt P70207)	SPR		pH 7.5, 25 °C, NaCl 150 mM	baseline: wild type, higher = weaker binding	fold weaker binding	> 200 fold
B3 (TIMP3 24-144)	ADAMTS5 262-731 (Homo sapiens, UniProt Q9UNA0)	inhibitor, steady-state kinetics		1 h, pH 7.5, 37 °C		Ki	0.29 nM
WRN (Homo sapiens, UniProt Q14191)	EXO1 (Saccharomyces cerevisiae, UniProt P39875)	co-IP	yeast	6 h, with: MMS 0.3 mM	baseline: untreated cells, higher = more co-precipitation	relative co-IP	1.7 fold
Ppp2r5b E153R (Rattus norvegicus)	GST-TH 31-164, pS40 (UniProt P04177)	Ser40 dephosphorylation	COS, immunoisolated holoenzyme		baseline: wild type, higher = less activity	relative dephosphorylation inhibition	50 % inhibition
SGRGK(Ac)GGKGL (histone H4 residues 1-10; acetylated K5)	ATAD2 bromodomain 981-1108 C1101A, Cys1057-Cys1079 disulfide (Homo sapiens, UniProt Q6PL18)	ITC	peptide			ΔH	-3570 cal/mol
TPDYLMQLMNDKKLMSSLPNFSGIFNHLERLADEEISRVRKDMYNDTLNGSTEK (Qki 14-67 C35S/L45A (Mus musculus, UniProt Q9QYS9))	itself	CD thermal melting		50 µM		melting temperature	40 °C

Molecule	target or system	test	system	setting	scale	endpoint	value
REC102 (Saccharomyces cerevisiae, UniProt Q02721)	SPO11 (Saccharomyces cerevisiae, UniProt P23179)	SEC-MALS				molecule per partner	1
ribosomes whole ribosome (Rattus norvegicus)	CRIP3 precursor 22-286 (Zea mays, UniProt P28522)	SPR		60 nM		association response	40 RU
FKF1 (UniProt Q9C9W9)	GI (UniProt Q9SQI2)	reporter gene	HEK293T	with: FZ 20 µM	baseline: dark, higher = stronger induction	light induction of luciferase	40 fold
B4 (ATF1)	CDK3 (Homo sapiens, UniProt Q00526)	luciferase, two-hybrid	HEK293	36 h	baseline: control without prey factor, higher = stronger interaction	interaction activity	> 15 fold
HLA-DRA/HLA-DRB1 heterodimer, on cells (Homo sapiens)	itself	single-particle fluorescence imaging		37 °C		fraction of 1-particle spots	82 ± 6%
MT-CO3 (Bos taurus, UniProt P00415)	cytochrome c oxidase eight-subunit core (Bos taurus, UniProt P00396)	anion exchange chromatography, RP-HPLC, SDS-PAGE		10 min, pH 7.2, room temperature, apparent, single transition fit		urea midpoint for subunit dissociation	4.8 M
CALM1 holo (Homo sapiens, UniProt P0DP23)	Nos1 (Rattus norvegicus, UniProt P29476)	optical stopped-flow		CaM not pre-bound, with: NADPH, holo CaM		heme reduction rate	18.2 s⁻¹
B5 (rsd G14E/Y34F)	rpoD (Escherichia coli, UniProt P00579)	single-round in vitro transcription, inhibitor			baseline: absence of Rsd, higher = less inhibition	remaining transcription	4%
NRTN fragment Y119A (Homo sapiens)	RET 29-635 (Homo sapiens, UniProt P07949)	MAPK signaling, SRE luciferase reporter, agonist	TGW neuroblastoma			EC50	13 ng/mL
TNFRSF17/IgG1 Fc fusion extracellular (Homo sapiens)	Tnfsf13b 127-309 (Mus musculus, UniProt Q9WU72)	B cell population in spleen			baseline: control Ig, higher = more B cells	B220+ B cell population	50%
B6 (UGT1A9)	CC(C)(c1ccc(O)cc1)c1ccc(O)cc1	steady-state kinetics		pH 7.4, 37 °C		Vmax	0.00442 µmol/min/mg
TIMP2 N-terminal domain S4P/I35V/S68N/V71I/H97R	MMP14 fragment (Homo sapiens)	fluorogenic substrate cleavage, inhibitor, enzyme inhibition assay		apparent		Ki	106 nM
CXCL8 (Homo sapiens, UniProt P10145)	CXCR3 (Homo sapiens, UniProt P49682)	label-free dynamic mass redistribution	HEK293T	very weak response	higher = stronger response	maximal response	10.2 DMR
ADRB1 (Homo sapiens, UniProt P08588)	ADORA1 (Homo sapiens, UniProt P30542)	pERK, agonist	HEK-293	250 nM, 5 min, co-transfected, in cells, with: CCPA		pERK	1.46 fold
B7 (GPIHBP1 21-151)	LPL mature R324A (Homo sapiens, UniProt P06858)	native gel electrophoresis				molecule per partner	1
B8 (Efnb1 25-236)	Epha4 (Mus musculus, UniProt Q03137)	western blot	Fc fusion, HEK293T	0 to 10 minutes min, with: clustered ephrin B1 5 µg/mL	baseline: baseline, higher = more phosphorylation	EphA phosphorylation	150%
RBM38 Pep8 S6K	EIF4E (Homo sapiens, UniProt P06730)	immunoblot	RKO	2.5 µM, 18 h	baseline: untreated, higher = more p53	p53 protein level	2.3 fold

Some of these lines once more:
Molecule	target or system	test	system	setting	scale	endpoint	value
WRN (Homo sapiens, UniProt Q14191)	EXO1 (Saccharomyces cerevisiae, UniProt P39875)	co-IP	yeast	6 h, with: MMS 0.3 mM	baseline: untreated cells, higher = more co-precipitation	relative co-IP	1.7 fold
RRRRRRC / CGSFPPWVQKTEV (peptide; cyclic, disulfide-linked poly-Arg)	DLG4 309-422 (Homo sapiens, UniProt P78352)	SPR	peptide			koff	0.0312 s⁻¹
PTH fragment, C-terminal amide (Homo sapiens)	PTH1R (Homo sapiens, UniProt Q03431)	cAMP	HEK293	EC50		cAMP production	0.58 nM
